Measured values gathered from unrelated publications.
Parts stem from different laboratories: compare values within a part only. Positions count from the first letter of the parent shown.

Block 1 — technique: RNA Bind-n-Seq; form: RNA; sample: in vitro; concentration: 20 nM; notes: 6-mer, flanks averaged, single round; added: 150 mM LiCl; baseline: input library; direction: higher = stronger binding; endpoint: 6-mer enrichment (R)
Target: TAR DNA-binding protein 43, full length, His tag (TARDBP, Homo sapiens, UniProt Q13148, residues 1-414)
Strand = CACCUU; result = 0.971
Strand = GAGGCC; result = 1.01
Strand = GGUUGG; result = 1.32
Strand = GGUUAG; result = 1.09
Strand = UAAUUC; result = 0.93
Strand = GAGCUA; result = 0.886
Strand = AUUCCU; result = 0.879
Strand = ACUAGC; result = 0.851
Strand = CUGCAC; result = 0.912
Strand = AUUUAA; result = 0.99
Strand = UCAUGG; result = 0.922
Strand = GUCUGG; result = 1.09
Strand = ACGCGA; result = 0.835
Strand = UCCCCU; result = 1.22
Strand = GACAGA; result = 0.871
Strand = CUAGAC; result = 0.818
Strand = AUCCCC; result = 1.11

Block 2 — technique: universal PBM; form: double-stranded DNA, one strand shown; sample: in vitro; concentration: not given; direction: higher = stronger binding; endpoint: E-score
Target: Sal-like protein 4, full length isoform B (SALL4, Homo sapiens, UniProt Q9UJQ4-2, residues 1-616)
Notes: 8-mer, flanks averaged, mean of replicates
Target sequence (chain): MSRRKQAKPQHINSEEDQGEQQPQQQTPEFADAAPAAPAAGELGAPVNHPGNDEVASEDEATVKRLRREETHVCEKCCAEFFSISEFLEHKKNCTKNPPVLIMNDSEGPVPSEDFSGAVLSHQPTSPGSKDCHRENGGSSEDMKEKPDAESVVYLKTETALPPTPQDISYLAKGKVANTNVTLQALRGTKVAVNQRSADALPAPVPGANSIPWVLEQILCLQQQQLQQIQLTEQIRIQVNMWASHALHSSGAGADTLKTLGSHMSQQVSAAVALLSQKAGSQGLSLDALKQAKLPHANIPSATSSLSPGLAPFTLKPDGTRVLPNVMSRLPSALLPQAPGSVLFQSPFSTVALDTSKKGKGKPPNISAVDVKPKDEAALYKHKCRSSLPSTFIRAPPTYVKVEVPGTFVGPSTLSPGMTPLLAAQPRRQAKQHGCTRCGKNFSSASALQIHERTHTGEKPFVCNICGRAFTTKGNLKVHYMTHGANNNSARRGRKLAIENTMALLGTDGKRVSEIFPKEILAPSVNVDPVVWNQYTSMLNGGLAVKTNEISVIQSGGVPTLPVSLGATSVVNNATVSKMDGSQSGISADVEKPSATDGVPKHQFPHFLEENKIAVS
Strand = GAGGGAAA; result = 0.0783
Strand = GCGAAGGA; result = -0.112
Strand = ATGGGCAA; result = 0.0372
Strand = ATTTGGTG; result = 0.127
Strand = CCGCGCAG; result = -0.351
Strand = GAGGAAAC; result = -0.0842
Strand = GATCACGA; result = 0.00048
Strand = AGAAGAGG; result = 0.018
Strand = GCCTGACC; result = -0.0801
Strand = CCGGCGCA; result = -0.354
Strand = ATGCAAGG; result = -0.0061
Strand = TGGATCCA; result = 0.151
Strand = CGCTGCCC; result = -0.293
Strand = CTTGGGAA; result = 0.0242
Strand = ACTTCAAG; result = 0.158
Strand = ACCTTGTA; result = 0.206
Strand = AGGAAGCA; result = -0.00418
Strand = CAGTGGCC; result = -0.278
Strand = CTCTCCAA; result = -0.0164
Strand = ATCCGTAG; result = -0.0304
Strand = TACTCAGA; result = 0.033
Strand = CGTTCTAA; result = 0.0659
Strand = CCACGTGG; result = -0.441
Strand = CGGACACG; result = -0.228
Strand = AGCTACAT; result = 0.0693

Block 3 — target: CCNE2, cyclin fold, Cln2 fusion (human); technique: yeast growth competition, sequencing; sample: yeast; notes: weak parent motif; baseline: not given; direction: higher = stronger binding; endpoint: normalised enrichment score
Starting sequence: MASTL docking peptide (human); PMIAKNLMCELDE
Substitution = PMIAKNLMCELSE [D12S]; result = -0.0264
Substitution = PMIAKNLMIELDE [C9I]; result = -0.48
Substitution = PMIAKNCMCELDE [L7C]; result = -0.14
Substitution = PMIAKNLMCPLDE [E10P]; result = 0.109
Substitution = PMIAKNLMGELDE [C9G]; result = -0.328
Substitution = PMIAKNLMCELYE [D12Y]; result = -0.437
Substitution = PMIAGNLMCELDE [K5G]; result = -0.223
Substitution = PMIAKFLMCELDE [N6F]; result = -0.214
Substitution = PMIAKNLMCYLDE [E10Y]; result = 0.304
Substitution = PMIAKNLMCFLDE [E10F]; result = -0.204
Substitution = PMIAKCLMCELDE [N6C]; result = 0.117
Substitution = PMIAKNLLCELDE [M8L]; result = -0.0146
Substitution = PMIAKNLGCELDE [M8G]; result = -0.145
Substitution = PMIPKNLMCELDE [A4P]; result = 0.22
Substitution = PMIAKNLMCDLDE [E10D]; result = -0.312
Substitution = PMIVKNLMCELDE [A4V]; result = -0.159
Substitution = PMIAKNTMCELDE [L7T]; result = -0.184
Substitution = PMIAKNLMWELDE [C9W]; result = -0.433
Substitution = PMIAKNLMCELKE [D12K]; result = -0.0415
Substitution = PMIARNLMCELDE [K5R]; result = 0.285
Substitution = PLIAKNLMCELDE [M2L]; result = -0.231
Substitution = PMIAKNLMCEKDE [L11K]; result = 0.0362
Substitution = PMIAKNLMCEFDE [L11F]; result = -0.474
Substitution = PMHAKNLMCELDE [I3H]; result = -0.299
Substitution = PMIALNLMCELDE [K5L]; result = -0.0297

Block 4 — technique: EMSA with sequencing; form: double-stranded DNA, one strand shown; sample: in vitro; concentration: 10 and 20 nM; baseline: negative control set to 0; direction: higher = stronger binding; endpoint: normalised bound fraction
Target: Hepatocyte nuclear factor 3-alpha (Foxa1, Mus musculus, UniProt P35582, residues 1-468, full length assumed)
UniProt P35582, sequence (whole entry, looked up): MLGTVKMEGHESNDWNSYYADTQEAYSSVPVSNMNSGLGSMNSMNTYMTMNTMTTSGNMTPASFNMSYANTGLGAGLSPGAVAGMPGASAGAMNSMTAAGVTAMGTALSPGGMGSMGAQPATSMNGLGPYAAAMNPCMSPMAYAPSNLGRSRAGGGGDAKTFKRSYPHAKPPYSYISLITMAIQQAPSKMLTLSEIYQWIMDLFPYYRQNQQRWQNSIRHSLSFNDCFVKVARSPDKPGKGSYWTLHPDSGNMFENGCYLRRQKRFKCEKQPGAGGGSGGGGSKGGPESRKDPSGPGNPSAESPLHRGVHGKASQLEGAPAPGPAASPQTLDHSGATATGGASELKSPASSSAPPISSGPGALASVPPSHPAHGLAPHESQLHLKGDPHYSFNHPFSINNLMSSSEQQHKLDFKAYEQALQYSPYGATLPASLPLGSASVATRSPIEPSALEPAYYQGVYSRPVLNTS
Notes: whole designed probe, mean of two concentrations, ends assumed
All sequences stand within: GTGAGCGGTGCCCATTGATGGGGAAC … TTTCACTGGGATCGTGGGGAC
Strand = ATCTTCCCCCTCTTCCTTGCCCCACCAGCTCACCTTCCCGGGTTATTTGCAGATAGGAAAATAAATAAAGCCGGCATGATGAATCATGCTTCACGCGCATACTGCCAGAGCAAACAGATCTAACATGGTCCTTTGGCGACGCCAGGCTCCGGGAGAGCAAAGCACCGTGTCAGGGCCATGATCCGGGGTGGCC; result = 0.389 ratio
Strand = ACCCATGTTTTAATAATCCAGAACATCAGTTGAGTACAAAATCTCTTTTTCTAATTAAGAATGTTTGACCACATCAGCGAGTTCCTTGCCAACTGTTTACTTAGCCTCAGCAGATATGATGGGCCAGAATTTACACAGAAAAATACCTTCAAATATATTTAGTTTCTTCAGTGCTTTTAGATTGAGAAAATGA; result = 0.427 ratio
Strand = ATCCCAGGGCCTCTGGGCCTCCCACTGCACTGTGTCATCTGCCATTTGGTGTTTTCTTGGAGAAGAAGCTCTGTCATCTTCTTACATGAGCAAAGTAAACATCTATGTCTCTCCCACATTGTTGGTCATGTTTTCTGTTACTTGCAGCTGAATGCATTCCTGTGCCATCAATCATGTCCACTTTAGAGATAAA; result = 0.369 ratio
Strand = CATTAGAGTCAAAGTTGTTAAGGGGAGCTAGTCATAGCTACCACGTGGCCAGGCATGTGGAACCAGACACCAGGCACACATCATGTAACATCATATTTACTTTAAATAATGCTGACATGAATCATCATAGTGACACACTACTTGAGATATATAGAATAACATTATTACCCAGTAAGTATGTGAACATTCCGAT; result = 0.328 ratio
Strand = CTGCAACCATATTTTGAAGGCTATGAGCCTTTCCTTTTTCCTCAACACTGTATCCCCTTCCTGGCAATGTGCCTGGCACAGAAGAAATGCTCAGTAATTTTTGGCTGAACAAACAGATGAATGTCTATAGCCCACTTTGCTGGGAGAAGTGGAAGGAGGAGAGATTCCATTGCATATTAGAATTCTGTGTCTT; result = 0.225 ratio

Block 5 — technique: RNA Bind-n-Seq; form: RNA; sample: in vitro; concentration: 365 nM; baseline: no-protein control; direction: higher = stronger binding; endpoint: RBNS enrichment (R)
Target: RNA binding protein fox-1 homolog 2, RRM domain, GST-SBP tag (RBFOX2, Homo sapiens, UniProt O43251-10, residues 100-194)
Notes: natural RNA segment, single round, ends assumed
All sequences stand within: GGGAGUUCUACAGUCCGACGAUC … UGGAAUUCUCGGGUGCCAA
Target sequence (chain): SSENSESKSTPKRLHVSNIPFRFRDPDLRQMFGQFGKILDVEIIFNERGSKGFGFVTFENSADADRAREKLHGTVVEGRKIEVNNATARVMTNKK
Strand = CCAUGAAUUAAAUGUUUCCUGUGUUAAUCAGUAUUCUUAAAUUAAAAGAAAAUGUUUAUAAUGGAAAUGUCAGAGUGAAUGUGGGCUUUUUCUGGAGGUUGCAUUAAUUC; result = 2.28
Strand = GCAACUUGUAUGUUGAAAUGAUUGUAUGUUCUGUAUGAAAUGUUCCACUUGAGAUUUUUACAAAAGCACCUGUAUUAUCUCUUUUAAAAAUUAAACUUUUUUUUUGCUUU; result = 1.02
Strand = CCAUGGGCCUUCAGGAAUAUUUAUACAUGGCCCAGCCUGCACUGCCCGGGCGAGGGCAGAGGACACUGGGAGCAAGGCUUAUGCCCCUGCUGCCCGUCCUGUGCUGGGGG; result = 0.391
Strand = GCCCUUCCCUGAGCAUCCGACUCUUCCAGCAACAAUUCUGUUGGAUUUAAGGCCAAGGGCCAGUGGGUGGCAUGGGGUGGCACUAAUCUUGUGUGUUGCUUGGACAUUUG; result = 0.795
Strand = UGCACAGGACUUAUUAACAAGUUAACUCCCAGCCGGCCACUGUGUGCCCUGUACCCUUGCCUCUUCCCAGUGAUAGUGGGCAUAUCCACCUCACCAAGAUAAUUCUGUAC; result = 0.317
Strand = UACCAGCAGGACUUGUUGCCAGUGAUACCAAAACAGACUUUUCCCAAGCAGUGCCUCACAUGUCUGCUGGUGUGGCUUUGGGAUUCUCCUGCCCCACCCCCCCGUCCAUG; result = 2.19
Strand = GAAAGAGAGGAAGAGAGAAGCAAACAUGUAGGAAAAAAUAUAAAUCAGCCCCAUUCUCCCAUUCUUUAAGAACAAUGAUUUUUCUUGAUGGAAAAUGCAUAUCACUUGAC; result = 0.6
Strand = CAUUCUUGGGUGGAAAUAGGUCUCCGUUUACCUGAGCUGAGGGUUGUUUGGAAAAUAAGAGCCAAUUUUUCUUAGAAUAUAUAUGUAUAUUAAAUGAGCAUUUGACCUGU; result = 0.618

Repeated from above (block 2):
Strand = ATGCAAGG; result = -0.0061
Strand = TGGATCCA; result = 0.151
Strand = CGCTGCCC; result = -0.293
Strand = CTTGGGAA; result = 0.0242
Strand = ACTTCAAG; result = 0.158
